Measured values collected from several papers.
Protocols differ between the studies behind these lines.
Target: STE20/SPS1-related proline-alanine-rich protein kinase (STK39, Homo sapiens, UniProt Q9UEW8)

SMILES | assay | test system | conditions | how to read | measurement | value
NC(=O)C[C@H]1CCc2sc3ncnc(O[C@H]4CC[C@H](N5CCOCC5)CC4)c3c21 | enzyme activity, inhibitor |  | 10 µM |  | inhibition | 4%
C=CC(=O)N1Cc2nc(-c3cc(-c4cc(Cl)cnc4Cl)c(F)cc3F)n(-c3ccncn3)c2C1 | cell-free assay, inhibitor |  | 1 µM |  | inhibition | 2%
Cc1ccc(-c2c(/C=C(\C#N)C(=O)NC(C)C)n(CCCO)c3ncnc(N)c23)cc1 | cell-free assay, competition with immobilised ligand |  | 1 µM |  | remaining binding | 97%
C=CC(=O)N1CCc2ccc(-n3c(=O)ccc4cnc5ccc(-c6cnn(C)c6)cc5c43)cc21 | KINOMEscan |  | 1 µM | reference: DMSO control | remaining binding | 100%
CNC(=O)C1CCN(c2cc(C)c(F)cc2NC(=O)c2ccc(-c3cc(O)ccc3C)c(C)c2)CC1 | binding, competition with immobilised ligand |  | 1 µM |  | remaining binding | 100%
Nc1ncc(-c2cc(-c3cnn(CC(F)(F)F)c3)ncc2F)nc1C(=O)NC1CNCC(F)C1 (centres unmarked) | enzyme activity |  | 1 µM | reference: DMSO control | remaining activity | 81.6%
C=CC(=O)Nc1cc(-c2nn(C3CCN(CCNC(=O)[C@H](C)CCC45CC6CC(CC(C6)C4)C5)CC3)c3ncnc(N)c23)ccc1Oc1ccccc1 | inhibitor, KiNativ profiling | biochemical | 2 µM |  | inhibition | 29.2%
Nc1ncc2c(n1)-c1c([nH]c3ccc(C4=CCOCC4)cc13)CCC2 | binding, competition with immobilised ligand |  | 1 µM |  | remaining binding | 100%
C=CC(=O)N1CCCC(n2c(=O)c3ncccc3n(Cc3ccc(Oc4ccccc4)cc3)c2=O)C1 (centres unmarked) | cell-free assay, competition with immobilised ligand |  | 1 µM |  | remaining binding | 81%
NC(=O)[C@@H](O)C[C@H]1CCc2sc3ncnc(O[C@H]4CC[C@H](N5CCOCC5)CC4)c3c21 | enzyme activity, inhibitor |  | 10 µM |  | inhibition | 11%
COc1c(Cl)cccc1Nc1c(-c2ccncc2C#C[C@@]2(C)CCCN2C(=O)/C=C/CN(C)C)[nH]c2c1C(=O)NCC2 | binding, competition with immobilised ligand |  | 3 µM |  | remaining binding | 72%
CC(C)=CC1OC(C)(C)C2C=C3C(=O)C(Cl)=CC(O)C3C3C(O)C4OC4C(=O)C132 (centres unmarked) | cell-free assay, competition with immobilised ligand |  | 10 µM |  | remaining binding | 70%
O=C(Cc1ccc(OCc2ccccc2)cc1)NC1(C(=O)O)CCN(C(=O)c2ccc(-c3cccc(Cl)c3)cc2)CC1 | enzyme activity, inhibitor |  | 10 µM |  | activity vs control | 118%
CCN1CCN(Cc2ccc(C(=O)Nc3ccc(C)c(NCc4cnc5[nH]ccc5c4OC)c3)cc2C(F)(F)F)CC1 | binding, competition with immobilised ligand |  | 1 µM |  | remaining binding | 56%
COc1cc(Nc2nc(C)cc(-c3cnn4nc(OC)ccc34)n2)cc(C(F)(F)F)c1 | binding, competition with immobilised ligand |  | 1 µM |  | remaining binding | 64%
Cc1cnc2nc1Nc1cccc(c1)COC/C=C/COCc1cc(ccc1OCCN1CCOCC1)N2 | binding, competition with immobilised ligand |  | 0.1 µM |  | remaining binding | 77%
C#CCCCCNC(=O)c1ccc(N(C(=O)C=C)c2ccc(Br)cc2)cc1 | mass spectrometry profiling | H460 cell lysate | 100 µM over 10 µM, UniProt Q9UEW8 | reference: high over low concentration | reactivity ratio | 1.85
COc1cc(Nc2nccc(-c3cnn4nc(OC)ccc34)n2)cc(C(F)(F)F)c1 | binding, competition with immobilised ligand |  | 1 µM |  | remaining binding | 100%
CNC1C[S+]2CC[S+]3CC[S+](C1)[Ru-4]321([N]=C=S)[n]2c3ccc(OC)cc3c3c4c(c5cc(F)c[n+]1c5c32)C(=O)NC4=O (centres unmarked) | KinomeScan |  | 0.1 µM | reference: untreated | remaining binding | 98%
CN1CCN(Cc2ccc(-c3ccc(CO[C@H]4CCC[C@@H]4NC(=O)c4cc(-c5cnn(C)c5)cnc4N)cc3)cc2)CC1 | enzyme activity, inhibitor |  | 0.1 µM |  | inhibition | -10%

Excerpt of the above:
SMILES | assay | test system | conditions | how to read | measurement | value
NC(=O)C[C@H]1CCc2sc3ncnc(O[C@H]4CC[C@H](N5CCOCC5)CC4)c3c21 | enzyme activity, inhibitor |  | 10 µM |  | inhibition | 4%
C=CC(=O)N1Cc2nc(-c3cc(-c4cc(Cl)cnc4Cl)c(F)cc3F)n(-c3ccncn3)c2C1 | cell-free assay, inhibitor |  | 1 µM |  | inhibition | 2%
Cc1ccc(-c2c(/C=C(\C#N)C(=O)NC(C)C)n(CCCO)c3ncnc(N)c23)cc1 | cell-free assay, competition with immobilised ligand |  | 1 µM |  | remaining binding | 97%
